Experimental data pooled from the literature.
Each numbered part is a random draw from the data of one study; scales do not carry over between parts.

Set 1
Target: Ras GTPase-activating protein-binding protein 1, full length (G3BP1, Homo sapiens, UniProt Q13283)
Sequence of UniProt Q13283 (whole entry, looked up): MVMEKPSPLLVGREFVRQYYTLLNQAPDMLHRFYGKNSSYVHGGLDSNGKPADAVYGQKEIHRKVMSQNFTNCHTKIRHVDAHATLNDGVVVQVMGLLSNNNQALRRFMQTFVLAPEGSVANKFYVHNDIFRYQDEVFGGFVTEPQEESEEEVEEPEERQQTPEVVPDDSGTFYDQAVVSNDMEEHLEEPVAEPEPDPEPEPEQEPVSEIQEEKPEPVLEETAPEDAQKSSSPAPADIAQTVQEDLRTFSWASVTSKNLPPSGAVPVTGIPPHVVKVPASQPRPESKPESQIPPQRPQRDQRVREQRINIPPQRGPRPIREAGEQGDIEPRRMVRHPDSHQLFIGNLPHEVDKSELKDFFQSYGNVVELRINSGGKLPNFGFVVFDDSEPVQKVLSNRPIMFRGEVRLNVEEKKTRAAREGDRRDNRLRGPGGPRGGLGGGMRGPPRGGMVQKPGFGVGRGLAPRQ
Method: RNA Bind-n-Seq
Form: RNA
Medium: in vitro
Concentration: 200 nM
Setting: whole 134-nt RNA, ends assumed
Added: 150 mM LiCl
Relative to: input library
Reading: higher = stronger binding
Each molecule: 7-deaza-guanosine replaces G
Sequence	log2 enrichment
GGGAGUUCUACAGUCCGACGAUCUCCUGUGCUACACAUCGUAUGUACCGAAUCGGGUUUUUUGGUUUUUUGGGUUUUUUGGGAAAGUAUUAUGUUACGCCGUUCGGAUCUGCAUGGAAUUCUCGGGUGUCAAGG	-0.138
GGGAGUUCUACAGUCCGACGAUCUGGGAGGUGGAUUUUGUUUAUUUUUUUAGCUCAUUUUCAGGGGUGGGAAUUUUUUUUUAAUAUGUGUCAUGAAUAAAGUUGUUUUUGAAAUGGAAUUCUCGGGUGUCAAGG	0.486
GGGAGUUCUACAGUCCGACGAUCCUCAAGUCCUGUGCUACACAUCGUAUGUACCGAAUCGGUUUUUUUGGUGGUGGAAAGUAUUAUGUUACGCCGUUCGGAUCUGCACUUCCAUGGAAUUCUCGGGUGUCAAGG	0.279
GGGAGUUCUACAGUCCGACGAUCAAGUCCUGUGCUACACAUCGUAUGUACCGAAUCGGGAAAAGGGGAAAAGGAAAAGGGAAAGUAUUAUGUUACGCCGUUCGGAUCUGCACUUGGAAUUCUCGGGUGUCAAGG	0.351
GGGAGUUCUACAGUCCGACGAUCUGGGAGGUGGAUUUUGUUUAUUUUUUUAGCUCAUUUCCAGGGGUGGGAAUUUUUUUUUAAUAUGUGUCAUGAAUAAAGUUGUAUUUGAAAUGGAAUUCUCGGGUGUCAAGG	-0.101
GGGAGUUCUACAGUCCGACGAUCAAGUCCUGUGCUACACAUCGUAUGUACCGAAUCGGGGAAAAGGGAAAAGGAAAAGGGAAAGUAUUAUGUUACGCCGUUCGGAUCUGCACUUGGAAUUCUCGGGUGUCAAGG	0.133
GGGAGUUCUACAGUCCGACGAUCUGGCCCGCCGUCCUGAGGAAGCUGAGGUUCACUGCGGUGCCCAAGAACCACCAGGCGGUCCGGAACCCGUGAGCGGCUGCCAGGGGCUCUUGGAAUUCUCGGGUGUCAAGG	-0.00575
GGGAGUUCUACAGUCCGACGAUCCUGUGCUACACAUCGUAUGUACCGAAUCGGGGUUUGGGGUUUUUUUGGGGAAAAAAAGGGGAAAGUAUUAUGUUACGCCGUUCGGAUCUGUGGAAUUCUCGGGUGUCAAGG	0.276

Set 2
Target: Interferon regulatory factor 7, full length, phosphomimetic (IRF7, Homo sapiens, UniProt Q92985, residues 1-503, S471D/S472D/S475D/S476D/S477D/S483D/S484D/S487D)
Sequence of UniProt Q92985 (whole entry, unmodified, looked up): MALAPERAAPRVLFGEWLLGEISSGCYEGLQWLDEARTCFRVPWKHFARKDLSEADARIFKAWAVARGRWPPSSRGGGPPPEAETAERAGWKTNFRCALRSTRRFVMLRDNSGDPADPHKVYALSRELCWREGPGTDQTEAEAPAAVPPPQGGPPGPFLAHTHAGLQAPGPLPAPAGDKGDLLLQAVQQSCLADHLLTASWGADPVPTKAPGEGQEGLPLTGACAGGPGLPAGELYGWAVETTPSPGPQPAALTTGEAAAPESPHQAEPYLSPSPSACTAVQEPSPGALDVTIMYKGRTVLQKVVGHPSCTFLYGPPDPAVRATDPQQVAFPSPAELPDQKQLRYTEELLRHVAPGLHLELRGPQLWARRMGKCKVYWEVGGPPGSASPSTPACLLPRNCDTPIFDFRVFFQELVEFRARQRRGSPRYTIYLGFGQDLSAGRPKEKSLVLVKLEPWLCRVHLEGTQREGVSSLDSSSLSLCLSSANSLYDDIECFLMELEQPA
Method: protein-binding microarray
Form: double-stranded DNA, one strand shown
Medium: in vitro
Concentration: 2200 nM top
Setting: 60-bp whole probe
Added: salmon DNA 0.4 mg/ml
Relative to: random background probes
Reading: higher = stronger binding
Shared flanks, not repeated: GCCTAGCAC … GTCTTGATTCGCTTGACGCTGCTG
Sequence	fitted relative affinity [z-score]
TTAGATTTCGGGGTTCGATTAGTGCTA	1.96
TTAGGACTGGACTTTCGGTTCGTGCTA	10.3
TACGGTATCCTTTTCCTGACGTGCTAG	1.88
ATACCTTAGGTTTTCTGGTTGTGCTAG	2.94
TTATGTCTCGGTCTCGGTTAGTGCTAG	1.48
GACGGACTGGACTTTCGGGTCGTGCTA	5.55
TCATTTTTGGTAATAGTACTGTGCTAG	1.67
GCCTACTCGCTCGTCCGGAGGTGCTAG	0.257
TTAGGCCTCGGTCTCGGTTAGTGCTAG	0.16
TTAGATCTCAGTCTCGATTCGTGCTAG	1.31
CTAGGTATCCTTTTCCTTTAGTGCTAG	1.85
CTTAGAATAATTTTTTAGCTTGTGCTA	-0.873
TTAGGTATCGGGACTGCGTTAGTGCTA	-0.261
GTAGGACTGCTACTGCTTTAGTGCTAG	-0.0546
TTAGGACTGCTTATCCTTCAGTGCTAG	0.504
TTAGATCTCAGTATCGAATAGTGCTAG	-0.06
TTAGGTTACCTTTCCCTTTAGTGCTAG	2.69
GACGATTTCACTTCCGAGACGTGCTAG	2.76

Set 3
Target: RING finger protein unkempt homolog, zinc fingers 1-6, GST-SBP tag (UNK, Homo sapiens, UniProt Q9C0B0, residues 30-357)
Method: RNA Bind-n-Seq
Form: RNA
Medium: in vitro
Concentration: not given
Setting: RNA with constant flanks, human and mouse sites, ends assumed
Relative to: input RNA pool
Reading: higher = stronger binding
Construct (chain): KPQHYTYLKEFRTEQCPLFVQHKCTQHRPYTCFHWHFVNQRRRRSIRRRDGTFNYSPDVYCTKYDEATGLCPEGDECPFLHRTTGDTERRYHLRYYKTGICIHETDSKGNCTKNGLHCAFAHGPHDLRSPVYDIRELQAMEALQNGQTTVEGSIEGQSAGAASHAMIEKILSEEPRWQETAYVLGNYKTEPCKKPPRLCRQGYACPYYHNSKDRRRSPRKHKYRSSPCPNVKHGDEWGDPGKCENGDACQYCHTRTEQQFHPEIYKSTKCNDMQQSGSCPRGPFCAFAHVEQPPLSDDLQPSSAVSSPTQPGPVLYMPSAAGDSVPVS
Sequence	bound/input enrichment
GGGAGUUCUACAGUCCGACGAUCACUCCAAAGCCACUUCGAAGUAGUGCUGAUCCUGCACUGAAUCAAGAGGUUGCAUUAAAAUUAGAAUCAAGUCCAGAGUCACUGGGACUUUCUUUUACCAUGCCCCAGAUUCAAGAUCAGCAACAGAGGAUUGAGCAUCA	0.159 ratio
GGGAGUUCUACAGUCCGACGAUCUUGCAGGUUUUAAAGGGUGAUAUUAGACCUGCUAUUGAAACUCACGAAAUGUUAUACCAGGUGAUUAAAAAACACAAUUUUCUACCAGAGGCAUUUACUACAGAUUUCAGGGUCCAUUGGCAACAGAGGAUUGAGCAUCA	0.296 ratio
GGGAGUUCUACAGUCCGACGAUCUGUUACUCUGAUGGCACCGCAGUUCAUGAAAGCCACACAAAAAAUGCUUCAUUUUACGCUAGCUCUUCAACUCUCUACUACCAAAUAGAUAGUCACAUCCCAGGAACUCCUAGCCAGCUCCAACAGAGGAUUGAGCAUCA	0.198 ratio
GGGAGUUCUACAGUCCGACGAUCAGGGCAGUGGUAAAAAAUAAUCUUGCCCCACUUUUGAUGUGCAAGGAAUUGGUCACCAUUUAGUAUAUGUUUACUGGCUUCAUCACGGACCCUUAUGUCAACAGGUUCUUUCCAUUCCUACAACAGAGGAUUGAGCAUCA	0.551 ratio
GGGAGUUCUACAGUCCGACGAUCUUGCUGUCCUCUUGCUGAUGGCUGCUAGAUUUAAUUUAUUUGCUUCCCUCCUUGAUAACAUUAGUGAUUCUGAUUUCAGUUUUUCAUUUGUUUUGCUUUUGUUUUUUUCCUCGUGUAACACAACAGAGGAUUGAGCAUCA	3.26 ratio
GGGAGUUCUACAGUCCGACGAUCUCUAUCACUGAUGCUAAAAGUUGUGAGGGACAAAAUCCUGAGCUACUUCCAAAAACUCCUAUUAGUCCUCUGAAAACGGGGGUAUCGAAACCAAUUGUGAAGUCAACUUUAUCCCAGACACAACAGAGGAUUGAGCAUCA	1.83 ratio
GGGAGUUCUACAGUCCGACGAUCCCAGCGGGCGCAGCCGCGGCGGCGCGGGCCUCCCUAGCUGACACUCCCCCUGCGCGCCCCUCCCCCGCCGCGGCGGAAUCCCGCCCGCCCUCCGGUCCGCGCGCGAGCCCGAGGCCGCUUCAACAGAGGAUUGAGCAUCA	1.32 ratio
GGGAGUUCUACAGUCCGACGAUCAUGUCAGAUCUCUUCAACAAACUUGUCAUGAGGCGCAAAGGUAUCUCUGGAAAGGGACCUAGCACUGGAACCAGUGAGGGACCUGGAGGAGCCUUCUCUCGAAUGUCAGACUCCAUCCCACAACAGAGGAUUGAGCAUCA	0.0647 ratio

Set 4
Target: Histone acetyltransferase KAT6A, winged helix 1, GST fusion (KAT6A, Homo sapiens, UniProt Q92794, residues 1-85)
Method: protein binding microarray
Form: double-stranded DNA, one strand shown
Medium: in vitro
Concentration: not given
Setting: 8-mer, flanks averaged, mean of 2 arrays, mostly near background
Relative to: not given
Reading: higher = stronger binding
Residues (chain): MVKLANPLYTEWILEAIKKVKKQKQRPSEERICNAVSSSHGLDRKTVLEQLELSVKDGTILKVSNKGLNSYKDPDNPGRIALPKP
Sequence	E-score
CGGACGCA	0.29
AAAAAATT	-0.00653
ACGAGTAG	0.000985
AACATCGA	-0.113
ACCATACT	-0.175
AGTGCAGG	-0.109
GTGTGAGA	-0.081
ACCAGACA	-0.298
AACACCTA	-0.0425
GAAACTAA	-0.126
ATGGGTAC	-0.143
AAGGACCA	-0.149
GGATCGGA	0.181
ACTGTGTA	-0.0253
TACACCGA	-0.0278
GCGAGGCA	0.0444
CAGTCAAC	-0.148
CAGGTCAG	-0.194
AAATCCAG	-0.348
GACTTAGA	-0.3
CCGTCCAC	0.208
GAGCTACA	-0.186
CACTGTTA	-0.00651

A few entries again (set 3):
Sequence	bound/input enrichment
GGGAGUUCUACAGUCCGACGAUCUGUUACUCUGAUGGCACCGCAGUUCAUGAAAGCCACACAAAAAAUGCUUCAUUUUACGCUAGCUCUUCAACUCUCUACUACCAAAUAGAUAGUCACAUCCCAGGAACUCCUAGCCAGCUCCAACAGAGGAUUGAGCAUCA	0.198 ratio
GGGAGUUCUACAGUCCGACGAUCUUGCUGUCCUCUUGCUGAUGGCUGCUAGAUUUAAUUUAUUUGCUUCCCUCCUUGAUAACAUUAGUGAUUCUGAUUUCAGUUUUUCAUUUGUUUUGCUUUUGUUUUUUUCCUCGUGUAACACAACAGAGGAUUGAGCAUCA	3.26 ratio
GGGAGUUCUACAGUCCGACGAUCAGGGCAGUGGUAAAAAAUAAUCUUGCCCCACUUUUGAUGUGCAAGGAAUUGGUCACCAUUUAGUAUAUGUUUACUGGCUUCAUCACGGACCCUUAUGUCAACAGGUUCUUUCCAUUCCUACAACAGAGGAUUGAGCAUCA	0.551 ratio
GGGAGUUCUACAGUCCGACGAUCUCUAUCACUGAUGCUAAAAGUUGUGAGGGACAAAAUCCUGAGCUACUUCCAAAAACUCCUAUUAGUCCUCUGAAAACGGGGGUAUCGAAACCAAUUGUGAAGUCAACUUUAUCCCAGACACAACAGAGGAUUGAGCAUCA	1.83 ratio
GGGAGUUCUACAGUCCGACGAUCACUCCAAAGCCACUUCGAAGUAGUGCUGAUCCUGCACUGAAUCAAGAGGUUGCAUUAAAAUUAGAAUCAAGUCCAGAGUCACUGGGACUUUCUUUUACCAUGCCCCAGAUUCAAGAUCAGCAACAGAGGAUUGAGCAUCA	0.159 ratio
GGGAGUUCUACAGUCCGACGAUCUUGCAGGUUUUAAAGGGUGAUAUUAGACCUGCUAUUGAAACUCACGAAAUGUUAUACCAGGUGAUUAAAAAACACAAUUUUCUACCAGAGGCAUUUACUACAGAUUUCAGGGUCCAUUGGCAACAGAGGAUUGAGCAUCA	0.296 ratio
